Measurements from different studies.
Lines come from different studies, so protocols differ. ± marks the error that the study gave.
Method: steady-state kinetics
B1: oxdC (Bacillus subtilis, UniProt O34714); chain MKKQNDIPQPIRGDKGATVKIPRNIERDRQNPDMLVPPETDHGTVSNMKFSFSDTHNRLEKGGYAREVTVRELPISENLASVNMRLKPGAIRELHWHKEAEWAYMIYGSARVTIVDEKGRSFIDDVGEGDLWYFPSGLPHSIQALEEGAEFLLVFDDGSFSENSTFQLTDWLAHTPKEVIAANFGVTKEEISNLPGKEKYIFENQLPGSLKDDIVEGPNGEVPYPFTYRLLEQEPIESEGGKVYIADSTNFKVSKTIASALVTVEPGAMRELHWHPNTHEWQYYISGKARMTVFASDGHARTFNYQAGDVGYVPFAMGHYVENIGDEPLVFLEIFKDDHYADVSLNQWLAMLPETFVQAHLDLGKDFTDVLSKEKHPVVKKKCSK
B2: ycjS (Escherichia coli, UniProt P77503); chain MKSAMTSSPLRVAIIGAGQVADKVHASYYCTRNDLELVAVCDSRLSQAQALAEKYGNASVWDDPQAMLLAVKPDVVSVCSPNRFHYEHTLMALEAGCHVMCEKPPAMTPEQAREMCDTARKLGKVLAYDFHHRFALDTQQLREQVTNGVLGEIYVTTARALRRCGVPGWGVFTNKELQGGGPLIDIGIHMLDAAMYVLGFPAVKSVNAHSFQKIGTQKSCGQFGEWDPATYSVEDSLFGTIEFHNGGILWLETSFALNIREQSIMNVSFCGDKAGATLFPAHIYTDNNGELMTLMQREIADDNRHLRSMEAFINHVQGKPVMIADAEQGYIIQQLVAALYQSAETGTRVEL
B3: DAO1 (Trigonopsis variabilis, UniProt Q99042); chain MAKIVVIGAGVAGLTTALQLLRKGHEVTIVSEFTPGDLSIGYTSPWAGANWLTFYDGGKLADYDAVSYPILRELARSSPEAGIRLISQRSHVLKRDLPKLEVAMSAICQRNPWFKNTVDSFEIIEDRSRIVHDDVAYLVEFRSVCIHTGVYLNWLMSQCLSLGATVVKRRVNHIKDANLLHSSGSRPDVIVNCSGLFARFLGGVEDKKMYPIRGQVVLVRNSLPFMASFSSTPEKENEDEALYIMTRFDGTSIIGGCFQPNNWSSEPDPSLTHRILSRALDRFPELTKDGPLDIVRECVGHRPGREGGPRVELEKIPGVGFVVHNYGAAGAGYQSSYGMADEAVSYVERALTRPNL
B4: BPHL (Homo sapiens, UniProt Q86WA6); chain SVTSAKVAVNGVQLHYQQTGEGDHAVLLLPGMLGSGETDFGPQLKNLNKKLFTVVAWDPRGYGHSRPPDRDFPADFFERDAKDAVDLMKALKFKKVSLLGWSDGGITALIAAAKYPSYIHKMVIWGANAYVTDEDSMIYEGIRDVSKWSERTRKPLEALYGYDYFARTCEKWVDGIRQFKHLPDGNICRHLLPRVQCPALIVHGEKDPLVPRFHADFIHKHVKGSRLHLMPEGKHNLHLRFADEFNKLAEDFLQ
B5: enzyme (Halalkalibacterium halodurans, UniProt Q9KCN8); chain MLNVTQLQEATTFIQQQIETKPTIGLILGSGLGILADEIEQPVKVPYSDIPHFPVSTVQGHAGQLVIGMLEGKQVIAMQGRFHFYEGYSLEVVTFPVRVMKALGVEQIIVTNAAGGVNESFEAGDLMIIRDHINNMAQNPLIGPNDEAFGVRFPDMSNAYSERLRTLAKEKGNTLNLKLQEGVYVANTGPVYETPAEVRMIRKLGGDAVGMSTVPEVIVARHAGLEVLGISCISNMAAGILPQPLSHDEVIETTERVRQDFLNLVKAIVKDM
B6: PRODH2 157-515 (Homo sapiens, UniProt Q9UF12); chain YGQFVAGETAEEVKGCVQQLRTLSLRPLLAVPTEEEPDSAAKSGEAWYEGNLGAMLRCVDLSRGLLEPPSLAEASLMQLKVTALTSTRLCKELASWVRRPGASLELSPERLAEAMDSGQNLQVSCLNAEQNQHLRASLSRLHRVAQYARAQHVRLLVDAEYTSLNPALSLLVAALAVRWNSPGEGGPWVWNTYQACLKDTFERLGRDAEAAHRAGLAFGVKLVRGAYLDKERAVAQLHGMEDPTQPDYEATSQSYSRCLELMLTHVARHGPMCHLMVASHNEESVRQATKRMWELGIPLDGTVCFGQLLGMCDHVSLALGQAGYVVYKSIPYGSLEEVIPYLIRRAQENRSVLQGARRE
B7: SUOX P184A (Homo sapiens, UniProt P51687); chain ESTHIYTKEEVSSHTSPETGIWVTLGSEVFDVTEFVDLHPGGPSKLMLAAGGPLEPFWALYAVHNQSHVRELLAQYKIGELNPEDKVAPTVETSDPYADDPVRHAALKVNSQRPFNAEPPPELLTENYITPNPIFFTRNHLPVPNLDPDTYRLHVVGAPGGQSLSLSLDDLHNFPRYEITVTLQCAGNRRSEMTQVKEVKGLEWRTGAISTARWAGARLCDVLAQAGHQLCETEAHVCFEGLDSDPTGTAYGASIPLARAMDPEAEVLLAYEMNGQPLPRDHGFPVRVVVPGVVGARHVKWLGRVSVQPEESYSHWQRRDYKGFSPSVDWETVDFDSAPSIQELPVQSAITEPRDGETVESGEVTIKGYAWSGGGRAVIRVDVSLDGGLTWQVAKLDGEEQRPRKAWAWRLWQLKAPVPAGQKELNIVCKAVDDGYNVQPDTVAPIWNLRGVLSNAWHRVHVYVSP
B8: TcC (Trypanosoma cruzi, UniProt Q4DGA3); chain MPREYEFAEKILFTEEEIRTRIMEVAKRIADDYKGKGLRPYVNPLVLISVLKGSFMFTADLCRALSDFNVPVRMEFICVSSYGEGVTSSGQVRMLLDTRHSIEGHHVLIVEDIVDTALTLNYLYHMYFTRRPASLKTVVLLDKREGRRVPFSADYVVANIPNAFVIGYGLDYDDTYRELRDIVVLRPEVYAEREAARQKKQRAIGSADTDRDAKREFHSKY
B9: TenA_E (Arabidopsis thaliana, UniProt Q9ASY9); chain MEKRGVIDTWIDKHRSIYTAATRHAFVVSIRDGSVDLSSFRTWLGQDYLFVRRFVPFVASVLIRACKDSGESSDMEVVLGGIASLNDEIEWFKREGSKWDVDFSTVVPQRANQEYGRFLEDLMSSEVKYPVIMTAFWAIEAVYQESFAHCLEDGNKTPVELTGACHRWGNDGFKQYCSSVKNIAERCLENASGEVLGEAEDVLVRVLELEVAFWEMSRGGQ
B10: CDO (Bacillus subtilis, UniProt O32085); chain MELYECIQDIFGGLKNPSVKDLATSLKQIPNAAKLSQPYIKEPDQYAYGRNAIYRNNELEIIVINIPPNKETTVHDHGQSIGCAMVLEGKLLNSIYRSTGEHAELSNSYFVHEGECLISTKGLIHKMSNPTSERMVSLHVYSPPLEDMTVFEEQKEVLENS
B11: ERAP1 K528R (Homo sapiens, UniProt Q9NZ08); chain MVFLPLKWSLATMSFLLSSLLALLTVSTPSWCQSTEASPKRSDGTPFPWNKIRLPEYVIPVHYDLLIHANLTTLTFWGTTKVEITASQPTSTIILHSHHLQISRATLRKGAGERLSEEPLQVLEHPRQEQIALLAPEPLLVGLPYTVVIHYAGNLSETFHGFYKSTYRTKEGELRILASTQFEPTAARMAFPCFDEPAFKASFSIKIRREPRHLAISNMPLVKSVTVAEGLIEDHFDVTVKMSTYLVAFIISDFESVSKITKSGVKVSVYAVPDKINQADYALDAAVTLLEFYEDYFSIPYPLPKQDLAAIPDFQSGAMENWGLTTYRESALLFDAEKSSASSKLGITMTVAHELAHQWFGNLVTMEWWNDLWLNEGFAKFMEFVSVSVTHPELKVGDYFFGKCFDAMEVDALNSSHPVSTPVENPAQIREMFDDVSYDKGACILNMLREYLSADAFKSGIVQYLQKHSYKNTKNEDLWDSMASICPTDGVKGMDGFCSRSQHSSSSSHWHQEGVDVKTMMNTWTLQRGFPLITITVRGRNVHMKQEHYMKGSDGAPDTGYLWHVPLTFITSKSDMVHRFLLKTKTDVLILPEEVEWIKFNVGMNGYYIVHYEDDGWDSLTGLLKGTHTAVSSNDRASLINNAFQLVSIGKLSIEKALDLSLYLKHETEIMPVFQGLNELIPMYKLMEKRDMNEVETQFKAFLIRLLRDLIDKQTWTDEGSVSERMLRSQLLLLACVHNYQPCVQRAEGYFRKWKESNGNLSLPVDVTLAVFAVGAQSTEGWDFLYSKYQFSLSSTEKSQIEFALCRTQNKEKLQWLLDESFKGDKIKTQEFPQILTLIGRNPVGYPLAWQFLRKNWNKLVQKFELGSSSIAHMVMGTTNQFSTRTRLEEVKGFFSSLKENGSQLRCVQQTIETIEENIGWMDKNFDKIRVWLQSEKLEHDPEADATG
B12: enzyme (Acinetobacter baumannii, UniProt D0CBC8); chain MALVLDGRALAKQIEENLLVRVEALKAKTGRTPILATILVGDDGASATYVRMKGNACRRVGMDSLKIELPQETTTEQLLAEIEKLNANPDVHGILLQHPVPAQIDERACFDAISLAKDVDGVTCLGFGRMAMGEAAYGSATPAGIMTILKENNIEIAGKHAVVVGRSAILGKPMAMMLLQANATVTICHSRTQNLPELVKQADIIVGAVGKAELIQKDWIKQGAVVVDAGFHPRDGGGVGDIQLQGIEEIASAYTPVPGGVGPMTITTLIRQTVEAAEKALG

| Substance | substrate | pH | temperature | setting | added | kcat/Km |
| --- | --- | --- | --- | --- | --- | --- |
| B1 (oxdC) | O=C(O)C(=O)O | pH 4.2 | – | – | Mn 1.87 per monomer, Triton X-100.2% | 6310 M⁻¹ s⁻¹ |
| B2 (ycjS) | CO[C@H]1O[C@H](CO)[C@@H](O)[C@H](O)[C@H]1O | pH 8 | 30 °C | – | NAD+ 2.0 mM | 103 ± 11 M⁻¹ s⁻¹ |
| B3 (DAO1) | Nc1ccc2nc3ccc(N)cc3[s+]c2c1 | pH 8 | 22 °C | apparent | – | 5000 M⁻¹ s⁻¹ |
| B4 (BPHL) | CC(C)[C@H](N)C(=O)NCc1cccc(NC=NN)c1 | pH 7.4 | 37 °C | – | – | 1.26 ± 0.08 M⁻¹ s⁻¹ |
| B5 (enzyme) | Nc1nc2c(ncn2[C@@H]2O[C@H](CO)[C@@H](O)[C@H]2O)c(=O)[nH]1 | pH 8 | – | – | – | 58700 M⁻¹ s⁻¹ |
| B6 (PRODH2 157-515) | O=C(O)[C@@H]1C[C@@H](O)CN1 | pH 7.5 | 25 °C | – | CoQ1 200 µM | 0.93 M⁻¹ s⁻¹ |
| B7 (SUOX P184A) | O=S(O)O | pH 8 | 25 °C | – | oxidized cyt c 400 µM | 6.1e+06 M⁻¹ s⁻¹ |
| B8 (TcC) | O=c1[nH]c(=O)c2[nH]cnc2[nH]1 | pH 8.3 | 37 °C | apparent | PRPP 1 mM, MgCl2 12 mM | 50 ± 5 M⁻¹ s⁻¹ |
| protein (Sinorhizobium meliloti, UniProt Q92WA3) | O=c1ccn([C@@H]2O[C@H](COP(=O)(O)OP(=O)(O)O[C@H]3OC[C@@H](O)[C@H](O)[C@H]3O)[C@@H](O)[C@H]2O)c(=O)[nH]1 | pH 7.6 | 37 °C | – | NAD+ 1 mM | 42100 ± 1700 M⁻¹ s⁻¹ |
| B9 (TenA_E) | Cc1ncc(CNC=O)c(N)n1 | pH 7.5 | 30 °C | formylamino-HMP amidohydrolase activity | 450 mM glycine betaine | 40.9 M⁻¹ s⁻¹ |
| protein (Zea mays, UniProt A0A2H4PMI3) | O=CCCCC(=O)O | pH 7.5 | 30 °C | substrate inhibition | NAD+ 3.0 mM | 23000 ± 4000 M⁻¹ s⁻¹ |
| B10 (CDO) | N[C@@H](CS)C(=O)O | pH 6.1 | 37 °C | – | O2, Fe(II) | 50 ± 20 M⁻¹ s⁻¹ |
| B11 (ERAP1 K528R) | CC(C)C[C@H](NC(=O)CNC(=O)[C@H](CCC(=O)O)NC(=O)[C@H](Cc1ccccc1)NC(=O)[C@H](CCCNC(=N)N)NC(=O)[C@H](CCCCN)NC(=O)[C@@H](N)Cc1ccc(O)cc1)C(=O)N[C@H](C(=O)N[C@@H](CCC(N)=O)C(=O)N[C@@H](CCCNC(=N)N)C(=O)O)[C@@H](C)O | – | 25 °C | – | – | 5500 ± 18000 M⁻¹ s⁻¹ |
| B12 (enzyme) | NC(=O)c1ccc[n+]([C@@H]2O[C@H](COP(=O)(O)OP(=O)(O)OC[C@H]3O[C@@H](n4cnc5c(N)ncnc54)[C@H](OP(=O)(O)O)[C@@H]3O)[C@@H](O)[C@H]2O)c1 | pH 7.3 | 27 °C | cofactor varied | – | 1.1e+06 M⁻¹ s⁻¹ |

For quick reference, copied from above:
| Substance | substrate | pH | temperature | setting | added | kcat/Km |
| --- | --- | --- | --- | --- | --- | --- |
| protein (Sinorhizobium meliloti, UniProt Q92WA3) | O=c1ccn([C@@H]2O[C@H](COP(=O)(O)OP(=O)(O)O[C@H]3OC[C@@H](O)[C@H](O)[C@H]3O)[C@@H](O)[C@H]2O)c(=O)[nH]1 | pH 7.6 | 37 °C | – | NAD+ 1 mM | 42100 ± 1700 M⁻¹ s⁻¹ |
| B9 (TenA_E) | Cc1ncc(CNC=O)c(N)n1 | pH 7.5 | 30 °C | formylamino-HMP amidohydrolase activity | 450 mM glycine betaine | 40.9 M⁻¹ s⁻¹ |
